Results from different studies.
Protocols differ between the studies behind these lines. ± marks the error that the study gave.
UniProt O43148, sequence (whole entry, looked up): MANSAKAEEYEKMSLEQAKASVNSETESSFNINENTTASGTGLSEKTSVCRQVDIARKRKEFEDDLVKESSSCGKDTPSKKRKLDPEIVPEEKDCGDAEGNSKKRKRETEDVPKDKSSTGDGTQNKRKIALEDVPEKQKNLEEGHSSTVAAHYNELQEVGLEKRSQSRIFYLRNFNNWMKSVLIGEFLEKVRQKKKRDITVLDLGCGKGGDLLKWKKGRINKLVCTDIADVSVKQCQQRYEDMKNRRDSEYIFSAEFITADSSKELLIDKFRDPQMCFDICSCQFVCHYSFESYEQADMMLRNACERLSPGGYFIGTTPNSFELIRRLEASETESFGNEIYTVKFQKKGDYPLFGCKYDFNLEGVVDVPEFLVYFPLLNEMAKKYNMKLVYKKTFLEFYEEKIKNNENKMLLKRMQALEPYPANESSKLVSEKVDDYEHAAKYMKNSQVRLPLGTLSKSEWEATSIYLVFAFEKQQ
UniProt Q8NER1, sequence (whole entry, looked up): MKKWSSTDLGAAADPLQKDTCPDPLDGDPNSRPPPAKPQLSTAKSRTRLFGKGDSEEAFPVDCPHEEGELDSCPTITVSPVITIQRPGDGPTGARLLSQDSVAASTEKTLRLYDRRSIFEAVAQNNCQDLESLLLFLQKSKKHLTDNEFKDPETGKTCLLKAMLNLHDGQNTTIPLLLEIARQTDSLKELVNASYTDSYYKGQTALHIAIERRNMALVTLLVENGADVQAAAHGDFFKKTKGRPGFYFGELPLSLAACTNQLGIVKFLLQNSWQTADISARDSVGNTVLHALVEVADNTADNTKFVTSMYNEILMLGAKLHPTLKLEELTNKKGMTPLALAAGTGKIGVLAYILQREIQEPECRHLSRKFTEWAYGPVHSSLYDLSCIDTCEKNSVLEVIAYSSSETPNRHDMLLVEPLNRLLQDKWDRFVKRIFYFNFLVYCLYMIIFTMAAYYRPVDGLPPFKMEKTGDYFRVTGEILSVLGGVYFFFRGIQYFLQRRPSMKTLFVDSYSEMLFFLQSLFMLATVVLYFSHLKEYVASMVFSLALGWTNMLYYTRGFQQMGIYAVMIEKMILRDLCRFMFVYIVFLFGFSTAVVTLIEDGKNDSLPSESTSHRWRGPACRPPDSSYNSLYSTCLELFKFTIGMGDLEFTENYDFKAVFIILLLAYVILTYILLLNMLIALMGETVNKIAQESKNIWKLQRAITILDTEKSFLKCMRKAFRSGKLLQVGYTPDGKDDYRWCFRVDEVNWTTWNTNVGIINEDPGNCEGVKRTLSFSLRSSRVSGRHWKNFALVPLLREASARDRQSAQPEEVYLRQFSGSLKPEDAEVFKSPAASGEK
UniProt P97612, sequence (whole entry, looked up): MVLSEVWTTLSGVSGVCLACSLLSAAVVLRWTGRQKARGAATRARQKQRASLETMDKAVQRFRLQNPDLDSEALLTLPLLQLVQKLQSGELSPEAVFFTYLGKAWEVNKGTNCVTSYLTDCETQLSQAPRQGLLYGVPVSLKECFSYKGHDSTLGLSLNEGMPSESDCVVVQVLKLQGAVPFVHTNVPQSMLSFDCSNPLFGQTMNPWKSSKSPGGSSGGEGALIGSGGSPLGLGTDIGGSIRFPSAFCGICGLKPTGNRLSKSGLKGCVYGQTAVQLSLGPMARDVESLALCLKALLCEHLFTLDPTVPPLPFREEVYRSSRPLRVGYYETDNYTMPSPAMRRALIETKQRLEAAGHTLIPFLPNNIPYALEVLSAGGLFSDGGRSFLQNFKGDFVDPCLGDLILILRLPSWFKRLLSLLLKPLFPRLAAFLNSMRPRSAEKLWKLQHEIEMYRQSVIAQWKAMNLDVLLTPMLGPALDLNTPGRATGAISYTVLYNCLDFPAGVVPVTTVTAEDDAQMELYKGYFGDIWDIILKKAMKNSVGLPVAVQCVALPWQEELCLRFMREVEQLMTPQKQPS
UniProt P18031, sequence (whole entry, looked up): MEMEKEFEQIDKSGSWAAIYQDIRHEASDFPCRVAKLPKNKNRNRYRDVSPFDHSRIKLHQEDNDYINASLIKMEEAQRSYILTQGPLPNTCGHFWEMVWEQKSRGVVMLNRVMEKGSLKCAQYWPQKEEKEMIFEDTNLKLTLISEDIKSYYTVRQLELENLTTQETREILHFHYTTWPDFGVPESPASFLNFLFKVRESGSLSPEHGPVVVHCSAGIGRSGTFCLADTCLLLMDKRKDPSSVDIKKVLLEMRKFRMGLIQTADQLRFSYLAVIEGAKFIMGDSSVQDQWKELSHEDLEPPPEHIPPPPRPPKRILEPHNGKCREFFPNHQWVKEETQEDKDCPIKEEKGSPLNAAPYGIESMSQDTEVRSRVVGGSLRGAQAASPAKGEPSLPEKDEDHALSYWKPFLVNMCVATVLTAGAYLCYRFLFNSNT
UniProt P20231, sequence (whole entry, looked up): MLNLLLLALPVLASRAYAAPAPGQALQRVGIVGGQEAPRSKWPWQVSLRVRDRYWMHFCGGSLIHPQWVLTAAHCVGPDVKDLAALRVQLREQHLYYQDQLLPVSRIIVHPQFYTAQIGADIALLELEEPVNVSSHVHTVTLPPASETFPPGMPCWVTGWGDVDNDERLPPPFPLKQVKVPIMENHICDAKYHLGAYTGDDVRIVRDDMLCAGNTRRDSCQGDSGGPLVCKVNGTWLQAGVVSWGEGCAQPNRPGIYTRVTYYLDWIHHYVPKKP

CCOC(=O)C(C)(COP(=O)(OC)OCCCCCCNC(=O)c1cc2ccccc2oc1=O)C(=O)CSC(C)=O (stereo not drawn) gave an IC50 of 4870 ± 30 nM (Retinal rod rhodopsin-sensitive cGMP 3',5'-cyclic phosphodiesterase subunit delta, with farnesylated K-Ras (PDE6D, Homo sapiens, UniProt O43924)).
With N=C(N)NC(=O)c1ccc(C(=O)NCCCC[C@H](NC(=O)CNC(=O)CCC(=O)NN=Cc2cc(C=NNC(=O)CCC(=O)NCC(=O)N[C@@H](CCCCNC(=O)c3ccc(C(=O)NC(=N)N)[nH]3)C(=O)N[C@@H](Cc3c[nH]c4ccccc34)C(=O)N[C@@H](CCCCN)C(N)=O)cc(C=NNC(=O)CCC(=O)NCC(=O)N[C@@H](CCCCNC(=O)c3ccc(C(=O)NC(=N)N)[nH]3)C(=O)N[C@@H](Cc3c[nH]c4ccccc34)C(=O)N[C@@H](CCCCN)C(N)=O)c2)C(=O)N[C@@H](Cc2c[nH]c3ccccc23)C(=O)N[C@@H](CCCCN)C(N)=O)[nH]1 the IC50 was 114 ± 19.3 nM (Tryptase beta-2 (TPSB2, Homo sapiens, UniProt P20231); enzyme activity, high-affinity phase, inhibitor; added: Tos-Gly-Pro-Arg-AMC substrate).
Brc1c(Br)c(Br)c2[nH]nnc2c1Br has an IC50 of 38100 ± 360 nM (mRNA cap guanine-N(7) methyltransferase, with RAM (RNMT, Homo sapiens, UniProt O43148); N7-methyltransferase activity, inhibitor, Py-FLINT; RNMT-RAM complex, added: SAM 20 µM).
The IC50 of Cn1c(=O)c2cc(C(=O)NCCCN3CCCCCC3)sc2c2ccccc21 is reported as 9800 nM (Bifunctional FPP/GGPP synthase (Plasmodium falciparum, UniProt Q8II79); GGPP production, inhibitor; saturating substrate).
For C=C(C)[C@]12C[C@@H](C)[C@@]34O[C@](Cc5ccccc5)(O[C@@H]1[C@@H]3C=C(COC(=O)Cc1cc(I)c(O)c(OC)c1)C[C@]1(O)C(=O)C(C)=C[C@@H]41)O2, the IC50 was 274 nM (TRPV1 (Homo sapiens, UniProt Q8NER1); calcium signal, antagonist, fluorescence).
CC(C)[C@H](NC(=O)[C@H](CO)NC(=O)[C@@H](N)CC(=O)O)C(=O)N[C@H]1CSC(=O)[C@H](Cc2ccccc2)NC(=O)[C@H](Cc2ccc(O)cc2)NC(=O)[C@H](CO)NC(=O)[C@H](C)NC1=O has an IC50 of over 1000 nM (Accessory gene regulator protein C (Staphylococcus aureus, UniProt Q309Z2)).
CC[C@H](C)[C@H](N)C(=O)N[C@@H](CO)C(=O)N[C@@H](CCC(N)=O)C(=O)N[C@H](C(=O)N[C@@H](CC(N)=O)C(=O)N[C@@H](CCC(=O)O)C(=O)N[C@@H](CCCCN)C(=O)N[C@H](C(=O)N[C@@H](CC(N)=O)C(=O)N[C@@H](CCC(N)=O)C(=O)N[C@@H](CO)C(=O)N[C@@H](CC(C)C)C(=O)N[C@@H](C)C(=O)N[C@@H](Cc1ccccc1)C(=O)N[C@H](C(=O)N[C@@H](CCCNC(=N)N)C(=O)N[C@@H](CCCCN)C(=O)N[C@@H](CO)C(=O)N[C@@H](CC(=O)O)C(=O)N[C@@H](CCC(=O)O)C(=O)N(CCOC)CC(=O)N(CCOC)CC(=O)N(CCOC)CC(N)=O)[C@@H](C)CC)[C@@H](C)CC)C(C)C gave an IC50 of over 200000 nM (hRSV fusion protein 5-helix bundle; binding, fluorescence polarization; added: Fl-C35 tracer 5 nM).
With O=c1ccc2cc(O[C@@H]3O[C@H](CO)[C@@H](O)[C@H](O)[C@H]3O)c(O)cc2o1 the IC50 was 327 nM (CA9 (Homo sapiens, UniProt Q16790); enzyme activity, inhibitor).
The IC50 of CC[C@H](C)[C@@H]1NC(=O)[C@H]([C@@H](C)O)NC(=O)CNC(=O)[C@H](CCCNC(=N)N)NC(=O)[C@H](CC(C)C)NC(=O)[C@@H]2CSSC[C@H](NC1=O)C(=O)N[C@H](C(=O)N[C@@H](CO)C(=O)NCC(N)=O)CSSC[C@H](NC(=O)[C@H](C)N)C(=O)N[C@@H](C)C(=O)N[C@@H](Cc1c[nH]c3ccccc13)C(=O)N2 is reported as 0.7 nM (Chymotrypsinogen A, activated (alpha-chymotrypsin) (Bos taurus, UniProt P00766); enzyme activity, inhibitor; 1 h, pH 7.4, 25 °C, added: N-succinyl-Ala-Ala-Pro-Phe p-nitroanilide).
CC(C)C(=O)Nc1cccc(-c2nn[nH]n2)c1 gave an IC50 of over 100000 nM (VIM-2 (Escherichia coli, UniProt Q5U7L7); enzyme activity, inhibitor, fluorescence; with preincubation).
CC(C)[C@H]1NC(=O)[C@H](CO)NC(=O)c2cc3cc(c2)C(=O)NC[C@H](NC(=O)[C@H](Cc2c[nH]cn2)NC(=O)[C@H](Cc2ccc(C(F)(F)P(=O)(O)O)cc2)NC(=O)[C@@H]2CCCN2C1=O)C(=O)N[C@@H](Cc1ccccc1)C(=O)N[C@@H](Cc1ccc2ccccc2c1)C(=O)N[C@@H](CCCNC(=N)N)C(=O)N[C@@H](CCCNC(=N)N)C(=O)N[C@@H](CCCNC(=N)N)C(=O)N[C@@H](CCCNC(=N)N)C(=O)N[C@H](C(=O)N[C@@H](CCCCN)C(N)=O)CNC3=O gave an IC50 of 30 nM (PTPN1 (Homo sapiens, UniProt P18031); enzyme activity, inhibitor, absorbance).
The IC50 of O=C(O)Cc1cccc(OC(=O)NCCCCCn2ccc3ccc(F)cc32)c1 is reported as 58 nM (Faah (Rattus norvegicus, UniProt P97612); rat brain homogenate; 60 min, 37 °C).

Excerpt of the above:
CCOC(=O)C(C)(COP(=O)(OC)OCCCCCCNC(=O)c1cc2ccccc2oc1=O)C(=O)CSC(C)=O (stereo not drawn) gave an IC50 of 4870 ± 30 nM (Retinal rod rhodopsin-sensitive cGMP 3',5'-cyclic phosphodiesterase subunit delta, with farnesylated K-Ras (PDE6D, Homo sapiens, UniProt O43924)).
With O=c1ccc2cc(O[C@@H]3O[C@H](CO)[C@@H](O)[C@H](O)[C@H]3O)c(O)cc2o1 the IC50 was 327 nM (CA9 (Homo sapiens, UniProt Q16790); enzyme activity, inhibitor).
